Assay results gathered from unrelated publications.
Every numbered part comes from another study and shows a few of its results, in no order.

Set 1
Target: Hepatocyte nuclear factor 3-beta, forkhead domain (FOXA2, Homo sapiens, UniProt Q9Y261, residues 142-269)
Technique: protein-binding microarray
Form: double-stranded DNA, one strand shown
Medium: in vitro
Concentration: not given
Setting: k-mer, scored over probes, only values ≥0.25
Reading: higher = stronger binding
Residues (chain): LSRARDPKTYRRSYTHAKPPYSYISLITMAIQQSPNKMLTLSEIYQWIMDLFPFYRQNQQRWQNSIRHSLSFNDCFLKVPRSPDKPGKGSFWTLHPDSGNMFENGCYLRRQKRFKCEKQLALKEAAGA
| Sequence | E-score |
| --- | --- |
| ACATGTAC | 0.26 |
| ACTAACAA | 0.299 |
| AATGTTAT | 0.307 |
| AACAACCA | 0.28 |
| GTATAGAC | 0.331 |
| TGTGTCAA | 0.324 |
| AACGTAAT | 0.297 |
| ATAGTAGA | 0.302 |

Set 2
Cell line: normal-adjacent organoid sample E
Technique: CellTiter-Glo
Concentration: 1 µM
Setting: replicate mean
Reference: DMSO
| SMILES | viability |
| --- | --- |
| Cn1cncc1[C@](O)(COc1ccc(C#N)cc1-c1ccc(OC(F)(F)F)cc1)c1ccc(C#N)cc1 | 34% |
| Cc1cn(-c2cc(NC(=O)c3ccc4c(c3)CN(c3cncnc3)C[C@@H]4C)cc(C(F)(F)F)c2)cn1 | 160% |
| C[C@@]1(Cc2ccc(C#N)cc2)C(=O)N(c2cc(Cl)cc(Cl)c2)c2ncc(C(=O)NC3(c4nc(C5CCC5)no4)CC3)n21 | 111% |
| C[C@H](c1ccc(F)cc1)N(Cc1cccc(C(=O)O)c1)C(=O)c1cnc2ccccc2c1 | 112% |
| O=C1CCc2cc(Nc3cc(OC4CCOCC4)c([N+](=O)[O-])cc3Cl)ccc2N1 | 131% |
| CN(C)[C@H]1CCN(c2cc(-c3ccccc3)nc3ccnn23)C1 | 124% |

Set 3
Target: Sal-like protein 4, full length isoform A (SALL4, Homo sapiens, UniProt Q9UJQ4, residues 1-1053)
Chain of UniProt Q9UJQ4 (whole entry, looked up): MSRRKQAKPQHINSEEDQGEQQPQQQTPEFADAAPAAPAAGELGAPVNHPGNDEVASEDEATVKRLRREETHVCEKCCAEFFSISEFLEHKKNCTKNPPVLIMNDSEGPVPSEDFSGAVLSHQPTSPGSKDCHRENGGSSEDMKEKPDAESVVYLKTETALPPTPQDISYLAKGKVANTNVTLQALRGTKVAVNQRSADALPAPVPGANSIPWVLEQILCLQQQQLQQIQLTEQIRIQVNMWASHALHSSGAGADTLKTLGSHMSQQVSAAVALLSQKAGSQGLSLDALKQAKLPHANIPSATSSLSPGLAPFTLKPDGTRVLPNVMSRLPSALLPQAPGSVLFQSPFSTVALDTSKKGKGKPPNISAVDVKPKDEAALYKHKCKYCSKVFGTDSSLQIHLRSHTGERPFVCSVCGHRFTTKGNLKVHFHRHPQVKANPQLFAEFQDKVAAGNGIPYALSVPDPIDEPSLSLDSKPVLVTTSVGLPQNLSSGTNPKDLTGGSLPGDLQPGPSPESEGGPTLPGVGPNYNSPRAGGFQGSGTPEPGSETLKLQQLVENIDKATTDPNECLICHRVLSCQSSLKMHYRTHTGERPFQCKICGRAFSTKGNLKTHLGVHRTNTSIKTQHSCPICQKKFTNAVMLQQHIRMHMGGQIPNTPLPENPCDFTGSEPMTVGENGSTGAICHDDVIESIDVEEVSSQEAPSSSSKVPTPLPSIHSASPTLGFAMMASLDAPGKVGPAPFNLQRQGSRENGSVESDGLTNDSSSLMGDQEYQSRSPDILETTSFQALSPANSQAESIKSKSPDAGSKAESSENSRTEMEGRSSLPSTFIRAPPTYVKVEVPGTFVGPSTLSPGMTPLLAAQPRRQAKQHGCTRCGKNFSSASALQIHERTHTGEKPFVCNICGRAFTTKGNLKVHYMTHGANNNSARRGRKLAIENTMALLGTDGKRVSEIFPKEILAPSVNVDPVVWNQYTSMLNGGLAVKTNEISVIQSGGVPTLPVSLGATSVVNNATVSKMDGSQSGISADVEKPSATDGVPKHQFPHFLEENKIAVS
Technique: universal PBM
Form: double-stranded DNA, one strand shown
Medium: in vitro
Concentration: 600 nM
Setting: 8-mer, flanks averaged, mean of replicates
Reading: higher = stronger binding
| Sequence | E-score |
| --- | --- |
| ATGAAGTA | 0.239 |
| ATAGGCGG | 0.0653 |
| CGTCCGTA | -0.0928 |
| AGGATGGA | -0.0503 |
| AACGGAAC | -0.216 |
| CTTTAACA | 0.255 |
| GGAGGTAC | -0.272 |
| GCTCGGAA | -0.257 |

Set 4
Target: Activin receptor type-1-like (ACVRL1, Homo sapiens, UniProt P37023)
Chain of UniProt P37023 (whole entry, looked up): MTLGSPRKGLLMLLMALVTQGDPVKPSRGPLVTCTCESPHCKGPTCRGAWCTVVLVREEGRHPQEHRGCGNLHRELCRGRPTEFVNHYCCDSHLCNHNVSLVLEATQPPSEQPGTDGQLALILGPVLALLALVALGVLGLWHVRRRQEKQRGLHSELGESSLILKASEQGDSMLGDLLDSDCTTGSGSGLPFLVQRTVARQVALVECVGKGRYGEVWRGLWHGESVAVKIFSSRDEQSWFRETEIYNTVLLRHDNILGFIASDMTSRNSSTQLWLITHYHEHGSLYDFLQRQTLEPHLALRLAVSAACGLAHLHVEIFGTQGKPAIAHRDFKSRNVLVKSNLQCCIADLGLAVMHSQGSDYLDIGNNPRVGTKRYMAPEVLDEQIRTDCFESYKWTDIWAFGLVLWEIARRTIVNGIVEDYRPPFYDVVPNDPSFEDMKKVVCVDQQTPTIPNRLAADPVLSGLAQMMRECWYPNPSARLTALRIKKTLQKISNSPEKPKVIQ
Observed: enzyme activity
Action: inhibitor
Concentration: 0.5 µM
Reference: control
| SMILES | remaining activity |
| --- | --- |
| CC(C)(C)c1nc2c3cc[nH]c(=O)c3c3cc(F)ccc3c2[nH]1 | 105% |
| C[C@@H](N)[C@H]1CC[C@H](C(=O)Nc2ccncc2)CC1 | 101% |
| O=Nc1c(-c2c(O)[nH]c3ccccc23)[nH]c2ccccc12 | 108% |
| c1cc(-c2cnn3cc(-c4ccc(OCCN5CCCCC5)cc4)cnc23)ccn1 | 21.6% |
| N#CC(c1ccnc(NCCc2cccnc2)n1)c1nc2ccccc2s1 (centres unmarked) | 102% |
| CCN(CC)CCCCN1c2ccccc2Oc2ccc(Cl)cc21 | 102% |
| O=c1c(-c2ccc(F)cc2)c(-c2ccncc2)[nH]n1-c1ccc(Cl)cc1 | 88.1% |
| NC(=O)c1ccc(-c2nc(-c3ccc4c(c3)OCCO4)c(-c3ccccn3)[nH]2)cc1 | 107% |
| CC(C)N(CCC(=O)c1ccc2ccccc2c1)Cc1ccccc1 | 107% |
| NC(=O)c1cccc(-c2cc(Nc3ccc(OC(F)(F)F)cc3)ncn2)c1 | 99.2% |
